Assay results gathered from unrelated publications.
Parts stem from different laboratories: compare values within a part only.

Study 1
Target: RING finger protein unkempt homolog, zinc fingers 1-6, GST-SBP tag (UNK, Homo sapiens, UniProt Q9C0B0, residues 30-357)
UniProt Q9C0B0, sequence (30-357, looked up): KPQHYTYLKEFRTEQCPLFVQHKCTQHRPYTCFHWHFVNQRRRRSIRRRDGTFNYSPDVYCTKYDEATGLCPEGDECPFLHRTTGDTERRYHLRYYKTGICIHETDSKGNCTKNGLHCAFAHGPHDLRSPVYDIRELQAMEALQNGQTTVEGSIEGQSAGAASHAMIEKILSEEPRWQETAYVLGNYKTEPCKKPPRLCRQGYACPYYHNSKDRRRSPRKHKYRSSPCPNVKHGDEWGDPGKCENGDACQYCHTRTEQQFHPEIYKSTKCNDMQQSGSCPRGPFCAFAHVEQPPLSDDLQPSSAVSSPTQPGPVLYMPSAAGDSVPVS
Technique: RNA Bind-n-Seq
Molecule type: RNA
Matrix: in vitro
Tested at: not given
Notes: RNA with constant flanks, human and mouse sites, ends assumed
Relative to: input RNA pool
Direction: higher = stronger binding
Sequence	bound/input enrichment
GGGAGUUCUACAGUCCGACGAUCUUGGACAUCCUCCUUCAGGACACCACCACAGAACCUUUGAGCCUGCUCGAAACCCCCCAGGAGACAACGCUUUAUACCAACAGUGUGCCUAAGCCUAGGAUCUUGGAUGCUGAACUUGAACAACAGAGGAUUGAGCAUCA	0.223 ratio
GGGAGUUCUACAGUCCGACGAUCACCAGGGAUGAGACCAACUAUGGAAUUCCACAGCGUGCUCUGCGGGGUCACUCCCACUUUGUUAGUGAUGUGGUUAUCUCCUCAGAUGGCCAGUUUGCCCUCUCAGGCUCCUGGGAUGGACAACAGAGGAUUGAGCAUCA	0.155 ratio
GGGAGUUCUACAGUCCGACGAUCAGGUUGAUCACAUGACAUGUCUACUAAGAAUUUUCACCUCUGUACUUGUAUGUAUAUUUUAUUGUUACUCAAUCUUGUAUUUUAUUUACAAAUUCAACACUGUCAACCCUGGGAAUUCUACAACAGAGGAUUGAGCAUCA	0.534 ratio
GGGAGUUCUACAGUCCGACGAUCUUGUCAGGUAGUAGUUAGUGCUUAGUAAUCGUGUAUUUGAUCUAGAUAGAAAUAGUCCCCGUGUUUCUCUAGCAUCAUGGUAACACUUGACUUUGCUCCCAUCUCUUAUCCUGAAAUGUACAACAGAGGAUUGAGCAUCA	0.442 ratio
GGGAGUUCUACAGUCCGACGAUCACUGGAGAGAAACCUUACAAAUGUAGUGAAUGUGAGAAAUCCUUUACAGUAGGCUCGGAUCUUAGAAUGCAUCAAAAAAUUCAUACUGGAGAGAAACCUUACAAAUGUAGUGACUGUGAUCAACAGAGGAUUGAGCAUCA	0.463 ratio
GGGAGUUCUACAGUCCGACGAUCACUAAAGAACUGGAAAAGAUGACAAAUCGGCAAGGCAUGCUAUUGAAGAAGAAAGAAGAGUGUAUGAAGAAAAUUCGAGAACUUGGAUCACUUCCCCAGGAAGCAUUUGAAAAGUACCAGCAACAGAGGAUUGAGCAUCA	0.211 ratio

Study 2
Target: Ras GTPase-activating protein-binding protein 1, RRM domain (G3BP1, Homo sapiens, UniProt Q13283)
UniProt Q13283, sequence (whole entry, looked up): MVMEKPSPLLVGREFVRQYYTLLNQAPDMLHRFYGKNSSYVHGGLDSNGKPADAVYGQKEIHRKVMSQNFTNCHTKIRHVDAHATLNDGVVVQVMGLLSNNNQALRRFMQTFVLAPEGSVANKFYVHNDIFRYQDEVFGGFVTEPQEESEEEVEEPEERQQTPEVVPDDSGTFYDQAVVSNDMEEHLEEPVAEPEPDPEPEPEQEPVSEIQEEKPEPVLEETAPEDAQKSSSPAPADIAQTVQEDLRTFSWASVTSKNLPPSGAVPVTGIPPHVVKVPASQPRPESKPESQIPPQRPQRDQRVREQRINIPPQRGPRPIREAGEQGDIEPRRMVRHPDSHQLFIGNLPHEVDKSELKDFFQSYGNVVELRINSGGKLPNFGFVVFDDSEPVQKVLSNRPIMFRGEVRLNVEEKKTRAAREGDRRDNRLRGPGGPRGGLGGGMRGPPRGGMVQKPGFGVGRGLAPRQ
Technique: RNA Bind-n-Seq
Molecule type: RNA
Matrix: in vitro
Tested at: 1 µM
Notes: whole 134-nt RNA, ends assumed
Added: 150 mM KCl
Relative to: input library
Direction: higher = stronger binding
Sequence	log2 enrichment
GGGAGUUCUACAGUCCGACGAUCUCAAGUCCUGUGCUACACAUCGUAUGUACCGAAUCGGGGAAAGGAAAGGAAAGGAAAGUAUUAUGUUACGCCGUUCGGAUCUGCACUUCCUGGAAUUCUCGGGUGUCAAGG	-0.243
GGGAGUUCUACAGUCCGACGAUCAGUCCUGUGCUACACAUCGUAUGUACCGAAUCGGGUUUUUGGUUUUUGGGUUUUUGGAAAGUAUUAUGUUACGCCGUUCGGAUCUGCACUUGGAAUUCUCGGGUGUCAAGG	-0.102
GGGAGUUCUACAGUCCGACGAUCUGGCCCUGGUGGCAUGCGGGGAGGAAGAGGUGGCCUCAUGGAUCGUGGUGGUCCCGGUGGAAUGUUCAGAGGUGGCCGUGGUGGAGACCGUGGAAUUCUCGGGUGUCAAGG	1.18
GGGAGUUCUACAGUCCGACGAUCUGGCCCUGGUGGCAUGCGGGGAGGAAGAGGUGGCCUCAUGGAUCGUGGUGGUCCCGGUGGAAUGUUUAGAGGUGGCCGUGGUGGAGACAGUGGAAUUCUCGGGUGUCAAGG	0.33
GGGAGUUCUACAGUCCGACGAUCCUGUGCUACACAUCGUAUGUACCGAAUCGGUUUUUUUGGGGUUUUUUUGGGGUUUUUUUGGAAAGUAUUAUGUUACGCCGUUCGGAUCUGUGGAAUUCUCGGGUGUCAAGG	-0.286
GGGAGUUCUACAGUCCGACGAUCCUCAAGUCCUGUGCUACACAUCGUAUGUACCGAAUCGGCCGGCCGGGGCCGGGAAAGUAUUAUGUUACGCCGUUCGGAUCUGCACUUCCAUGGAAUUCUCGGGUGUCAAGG	-0.371
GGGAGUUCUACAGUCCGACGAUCUGGGAGGUGGAUUUUGUUUAUUUUUUUAGCUCAUUUCCAGGGGUGGGAAUUUUUUUUUAAUAUGUGUCAUGAAUAAAGUUGUUAUUGAAAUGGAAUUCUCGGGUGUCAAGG	1.92
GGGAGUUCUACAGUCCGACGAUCGUCCUGUGCUACACAUCGUAUGUACCGAAUCGGCCCCCCGGCCCCCCGGGCCCCCCGGAAAGUAUUAUGUUACGCCGUUCGGAUCUGCACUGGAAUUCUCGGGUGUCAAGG	-0.422
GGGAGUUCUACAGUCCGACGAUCAAGUCCUGUGCUACACAUCGUAUGUACCGAAUCGGAAAAAAAGGUUUGGAAAAAGGAAAGUAUUAUGUUACGCCGUUCGGAUCUGCACUUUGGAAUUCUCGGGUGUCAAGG	-0.211

Study 3
Target: RNA binding protein fox-1 homolog 2, RRM domain, GST-SBP tag (RBFOX2, Homo sapiens, UniProt O43251-10, residues 100-194)
Technique: RNA Bind-n-Seq
Molecule type: RNA
Matrix: in vitro
Tested at: 365 nM
Notes: natural RNA segment, single round, ends assumed
Relative to: no-protein control
Direction: higher = stronger binding
Residues (chain): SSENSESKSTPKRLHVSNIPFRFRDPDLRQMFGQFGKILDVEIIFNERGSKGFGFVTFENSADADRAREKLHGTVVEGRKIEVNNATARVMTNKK
Sequence	RBNS enrichment (R)
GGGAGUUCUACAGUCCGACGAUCGUCGGCAUCGAAAGAGAAAUGGAAAUCCCUUGACAUCUGCUACCUCCUCCCCCCUCCUCUGAAACAGCUGCCUUAGCUUCAGGAACCUCGAGUACUGUGGGCAAUUUAGAUGGAAUUCUCGGGUGCCAA	0.483
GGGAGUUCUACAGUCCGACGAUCCCUGCACUCAAGCCGCAGGGUAGUACAGUUUUACCACAGAGGGACUCUUGAGCAAUGGAGUCACGUGUCUGCCCUGUGUAUUGCAGUUUGUCUUGACACAAGCUGUUUUUUGGAAUUCUCGGGUGCCAA	0.407
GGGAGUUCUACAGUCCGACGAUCUAUACAGCGAAGAGACAAUCUCUGCACUUUGCUAUGUAGCUGUGUACAUAUCACUACAGUUAUAGGAAGUUUCAGUCUACAGUCCAUCCAAAGGACCAACCUGCCUUACAUGGAAUUCUCGGGUGCCAA	0.48
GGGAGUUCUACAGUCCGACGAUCACUGGCGUUGCUUGUGACAGCCCUGGGGCUGAGGCCUGCACCUGGGCCUUGGCAACCAGAUUUCUUUCUUUGGAGUUUGAAAAGCUGUCUCCUGGCCGCAUGGGGUGAGCUGGAAUUCUCGGGUGCCAA	0.843
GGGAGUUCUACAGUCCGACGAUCAAUCAAGCCUGAUUCAAAACAUCCUAGGGUGUUUUAAACACACCAUCUGGUGCCAAAUGAAGAUUUUUAGGAGUGAUUACUAAUUAUCAAGGGCACAGUUGUGGUACUGUUGGAAUUCUCGGGUGCCAA	0.317
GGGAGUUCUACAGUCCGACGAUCCUAAGCAAAUGUACCACCAAUGAGCCAGGUUCCUAGCCUUCCUUUUGGAAGCUCAGUUCUUGAGUUGUCAGAGGGCCUCAUUGCCGUCCUCCUCUGAGAGCAGUGAUGCAUGGAAUUCUCGGGUGCCAA	0.323
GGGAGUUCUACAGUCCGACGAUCGCACUAUGUAGGUCCCCAUCCACUACUUGACCACCUUUAUCAUUUACGGGGAUUUACAUAGAUUACAGUGGCCAAGACCCCUUUCUCAAUGAAGGAUCUCAUUGGACGUCUGGAAUUCUCGGGUGCCAA	0.418
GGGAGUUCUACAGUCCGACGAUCCGGCAUGAUCUAUGUUCUGGUGAGCUCUUAGAACAACACAGAAGAAUCGGUCCAGUUAAGUGCAUGCAAAACGCCACCAAUGAAGGGAUUCUAUCCAGCAAGGUCCUGUUUGGAAUUCUCGGGUGCCAA	27.6

Study 4
Target: Histone acetyltransferase KAT6A, winged helix 1, GST fusion (KAT6A, Homo sapiens, UniProt Q92794, residues 1-85)
Technique: protein binding microarray
Molecule type: double-stranded DNA, one strand shown
Matrix: in vitro
Tested at: not given
Notes: 8-mer, flanks averaged, mean of 2 arrays, mostly near background
Relative to: not given
Direction: higher = stronger binding
Construct (chain): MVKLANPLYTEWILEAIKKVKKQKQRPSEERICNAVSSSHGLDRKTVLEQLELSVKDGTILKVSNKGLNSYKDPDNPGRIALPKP
Sequence	E-score
AGGTCCTC	-0.0707
AGTTAGGG	-0.177
TAGTGAGA	-0.0943
CCTTGGGC	0.0933
AGTACTAG	-0.0704
ACGACTAC	-0.0751
TCAGACGA	-0.204
CATGCACC	0.0561
ACACTGGG	-0.144
GTACCATA	-0.0138
TACTTTGA	-0.327
CGGAATAA	0.117
CTACGCGC	0.414
ATGTGAGC	-0.00121
ATTTATAG	-0.192
CGTTACCA	-0.203
CCGTCCCC	0.21
AGATAGTA	-0.0464
TCACATAA	-0.0274
ACGCCACC	-0.0108
ATAGCGTC	0.161
GGACCTAC	-0.0335
GACGACTC	-0.146

Excerpt of the above (study 2):
Sequence	log2 enrichment
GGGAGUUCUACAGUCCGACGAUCAAGUCCUGUGCUACACAUCGUAUGUACCGAAUCGGAAAAAAAGGUUUGGAAAAAGGAAAGUAUUAUGUUACGCCGUUCGGAUCUGCACUUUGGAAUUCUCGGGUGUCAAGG	-0.211
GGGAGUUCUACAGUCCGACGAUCUGGCCCUGGUGGCAUGCGGGGAGGAAGAGGUGGCCUCAUGGAUCGUGGUGGUCCCGGUGGAAUGUUUAGAGGUGGCCGUGGUGGAGACAGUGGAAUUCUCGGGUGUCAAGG	0.33
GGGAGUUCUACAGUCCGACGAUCUGGCCCUGGUGGCAUGCGGGGAGGAAGAGGUGGCCUCAUGGAUCGUGGUGGUCCCGGUGGAAUGUUCAGAGGUGGCCGUGGUGGAGACCGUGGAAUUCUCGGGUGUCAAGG	1.18
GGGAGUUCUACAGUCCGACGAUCUGGGAGGUGGAUUUUGUUUAUUUUUUUAGCUCAUUUCCAGGGGUGGGAAUUUUUUUUUAAUAUGUGUCAUGAAUAAAGUUGUUAUUGAAAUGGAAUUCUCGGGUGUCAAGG	1.92
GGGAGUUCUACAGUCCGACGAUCCUCAAGUCCUGUGCUACACAUCGUAUGUACCGAAUCGGCCGGCCGGGGCCGGGAAAGUAUUAUGUUACGCCGUUCGGAUCUGCACUUCCAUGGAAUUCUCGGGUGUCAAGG	-0.371
